Assay results gathered from unrelated publications.
Every numbered part comes from another study and shows a few of its results, in no order. Values joined by “and” are separate records of one study, mostly repeats; a detail may differ.
UniProt O60331, sequence (whole entry, looked up): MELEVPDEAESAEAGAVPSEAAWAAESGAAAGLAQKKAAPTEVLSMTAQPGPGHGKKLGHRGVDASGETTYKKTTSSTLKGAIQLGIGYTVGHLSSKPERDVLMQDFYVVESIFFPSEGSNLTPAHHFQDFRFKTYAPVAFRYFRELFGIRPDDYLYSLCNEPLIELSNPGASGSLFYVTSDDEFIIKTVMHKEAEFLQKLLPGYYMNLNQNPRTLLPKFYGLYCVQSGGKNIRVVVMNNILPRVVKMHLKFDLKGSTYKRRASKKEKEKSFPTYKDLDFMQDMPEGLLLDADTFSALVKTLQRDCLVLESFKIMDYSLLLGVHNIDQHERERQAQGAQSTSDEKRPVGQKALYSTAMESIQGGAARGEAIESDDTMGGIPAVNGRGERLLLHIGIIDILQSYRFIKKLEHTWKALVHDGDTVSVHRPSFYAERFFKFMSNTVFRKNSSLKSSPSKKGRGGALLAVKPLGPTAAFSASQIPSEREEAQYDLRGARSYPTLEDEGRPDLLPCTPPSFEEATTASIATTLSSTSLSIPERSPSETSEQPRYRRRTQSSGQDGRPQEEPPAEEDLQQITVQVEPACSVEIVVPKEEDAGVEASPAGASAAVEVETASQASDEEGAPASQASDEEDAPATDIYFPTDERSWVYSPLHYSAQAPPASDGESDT
UniProt P10721, sequence (whole entry, looked up): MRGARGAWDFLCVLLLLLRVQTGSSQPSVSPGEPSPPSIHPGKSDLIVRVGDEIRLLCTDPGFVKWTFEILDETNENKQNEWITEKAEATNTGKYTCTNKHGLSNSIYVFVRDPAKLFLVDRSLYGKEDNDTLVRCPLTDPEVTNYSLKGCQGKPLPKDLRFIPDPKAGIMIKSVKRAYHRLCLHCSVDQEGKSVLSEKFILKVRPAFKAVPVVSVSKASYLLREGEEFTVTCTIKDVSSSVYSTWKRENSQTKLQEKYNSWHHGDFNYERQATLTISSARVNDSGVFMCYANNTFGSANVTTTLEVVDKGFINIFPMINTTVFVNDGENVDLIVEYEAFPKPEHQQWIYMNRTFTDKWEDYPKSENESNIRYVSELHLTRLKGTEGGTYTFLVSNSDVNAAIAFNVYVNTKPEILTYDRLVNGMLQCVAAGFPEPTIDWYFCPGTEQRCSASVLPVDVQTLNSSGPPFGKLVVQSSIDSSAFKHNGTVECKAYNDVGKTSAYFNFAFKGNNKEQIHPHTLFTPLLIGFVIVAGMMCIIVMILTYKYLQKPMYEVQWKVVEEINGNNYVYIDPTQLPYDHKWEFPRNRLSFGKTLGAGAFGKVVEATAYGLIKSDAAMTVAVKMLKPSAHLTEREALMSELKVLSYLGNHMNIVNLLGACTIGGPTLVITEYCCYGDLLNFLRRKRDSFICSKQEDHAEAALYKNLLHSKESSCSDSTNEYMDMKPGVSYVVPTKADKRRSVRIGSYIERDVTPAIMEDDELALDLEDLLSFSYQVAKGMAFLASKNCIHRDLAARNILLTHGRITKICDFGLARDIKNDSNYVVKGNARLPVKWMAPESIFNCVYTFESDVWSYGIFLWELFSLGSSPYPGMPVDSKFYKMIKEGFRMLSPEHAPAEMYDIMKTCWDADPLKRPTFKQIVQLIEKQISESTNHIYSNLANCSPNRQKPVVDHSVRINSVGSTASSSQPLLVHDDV
UniProt P08631, sequence (whole entry, looked up): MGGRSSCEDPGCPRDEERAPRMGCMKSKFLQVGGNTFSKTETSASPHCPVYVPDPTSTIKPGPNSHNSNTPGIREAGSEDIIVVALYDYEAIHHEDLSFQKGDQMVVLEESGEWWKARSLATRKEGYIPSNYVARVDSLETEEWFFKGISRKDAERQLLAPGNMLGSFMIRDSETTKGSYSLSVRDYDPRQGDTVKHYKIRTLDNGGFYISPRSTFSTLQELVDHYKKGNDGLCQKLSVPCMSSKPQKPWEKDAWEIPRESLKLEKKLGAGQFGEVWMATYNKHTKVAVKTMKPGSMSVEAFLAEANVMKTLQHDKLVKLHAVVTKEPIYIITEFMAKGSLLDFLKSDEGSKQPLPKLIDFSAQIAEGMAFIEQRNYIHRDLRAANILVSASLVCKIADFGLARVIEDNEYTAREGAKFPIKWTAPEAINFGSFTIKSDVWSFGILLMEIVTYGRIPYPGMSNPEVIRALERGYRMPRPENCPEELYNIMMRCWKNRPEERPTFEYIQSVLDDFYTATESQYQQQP
UniProt Q16539, sequence (whole entry, looked up): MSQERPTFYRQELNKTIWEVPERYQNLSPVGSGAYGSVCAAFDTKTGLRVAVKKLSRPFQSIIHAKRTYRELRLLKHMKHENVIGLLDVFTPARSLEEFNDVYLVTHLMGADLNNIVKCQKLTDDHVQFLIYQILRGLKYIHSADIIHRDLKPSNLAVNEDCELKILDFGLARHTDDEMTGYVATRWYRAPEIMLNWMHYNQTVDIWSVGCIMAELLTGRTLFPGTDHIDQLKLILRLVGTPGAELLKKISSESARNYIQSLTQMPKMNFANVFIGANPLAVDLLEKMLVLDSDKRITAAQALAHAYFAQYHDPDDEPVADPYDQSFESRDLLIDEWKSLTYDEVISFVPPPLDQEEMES
UniProt Q9H2K8, sequence (whole entry, looked up): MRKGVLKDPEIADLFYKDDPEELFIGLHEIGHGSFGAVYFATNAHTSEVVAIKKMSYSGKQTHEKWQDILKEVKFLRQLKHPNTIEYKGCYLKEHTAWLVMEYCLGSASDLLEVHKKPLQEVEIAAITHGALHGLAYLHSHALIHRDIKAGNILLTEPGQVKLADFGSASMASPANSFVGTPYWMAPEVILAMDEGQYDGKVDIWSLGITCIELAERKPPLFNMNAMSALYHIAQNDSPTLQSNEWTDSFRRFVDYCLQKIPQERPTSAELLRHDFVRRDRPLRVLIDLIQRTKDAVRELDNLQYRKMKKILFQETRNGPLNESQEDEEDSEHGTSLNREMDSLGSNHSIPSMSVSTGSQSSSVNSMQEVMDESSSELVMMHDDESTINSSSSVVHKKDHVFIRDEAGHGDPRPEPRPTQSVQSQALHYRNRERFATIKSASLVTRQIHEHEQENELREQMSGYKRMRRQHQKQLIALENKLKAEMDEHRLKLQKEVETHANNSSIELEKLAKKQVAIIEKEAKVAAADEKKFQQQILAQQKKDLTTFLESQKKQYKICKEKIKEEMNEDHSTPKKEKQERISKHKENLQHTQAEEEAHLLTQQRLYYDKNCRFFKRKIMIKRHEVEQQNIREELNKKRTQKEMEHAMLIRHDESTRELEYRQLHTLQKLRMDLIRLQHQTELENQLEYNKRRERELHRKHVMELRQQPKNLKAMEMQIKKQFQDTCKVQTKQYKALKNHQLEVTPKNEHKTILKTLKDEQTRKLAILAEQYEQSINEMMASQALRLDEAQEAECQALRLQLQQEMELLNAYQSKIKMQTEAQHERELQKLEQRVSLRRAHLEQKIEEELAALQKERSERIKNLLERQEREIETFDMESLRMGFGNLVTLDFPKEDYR
UniProt P36896, sequence (whole entry, looked up): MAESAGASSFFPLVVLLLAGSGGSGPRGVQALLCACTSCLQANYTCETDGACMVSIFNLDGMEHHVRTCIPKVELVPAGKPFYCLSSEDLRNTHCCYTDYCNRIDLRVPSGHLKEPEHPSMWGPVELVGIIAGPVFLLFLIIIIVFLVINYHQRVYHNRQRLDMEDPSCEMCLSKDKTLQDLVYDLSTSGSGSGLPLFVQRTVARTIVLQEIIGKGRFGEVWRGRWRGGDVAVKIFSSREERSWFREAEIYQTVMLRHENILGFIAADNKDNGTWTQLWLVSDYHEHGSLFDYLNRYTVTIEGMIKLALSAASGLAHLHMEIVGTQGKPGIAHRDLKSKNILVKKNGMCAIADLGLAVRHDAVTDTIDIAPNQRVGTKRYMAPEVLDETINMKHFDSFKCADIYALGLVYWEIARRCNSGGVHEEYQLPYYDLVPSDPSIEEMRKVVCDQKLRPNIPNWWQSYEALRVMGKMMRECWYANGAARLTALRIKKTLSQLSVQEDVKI
UniProt Q13188, sequence (whole entry, looked up): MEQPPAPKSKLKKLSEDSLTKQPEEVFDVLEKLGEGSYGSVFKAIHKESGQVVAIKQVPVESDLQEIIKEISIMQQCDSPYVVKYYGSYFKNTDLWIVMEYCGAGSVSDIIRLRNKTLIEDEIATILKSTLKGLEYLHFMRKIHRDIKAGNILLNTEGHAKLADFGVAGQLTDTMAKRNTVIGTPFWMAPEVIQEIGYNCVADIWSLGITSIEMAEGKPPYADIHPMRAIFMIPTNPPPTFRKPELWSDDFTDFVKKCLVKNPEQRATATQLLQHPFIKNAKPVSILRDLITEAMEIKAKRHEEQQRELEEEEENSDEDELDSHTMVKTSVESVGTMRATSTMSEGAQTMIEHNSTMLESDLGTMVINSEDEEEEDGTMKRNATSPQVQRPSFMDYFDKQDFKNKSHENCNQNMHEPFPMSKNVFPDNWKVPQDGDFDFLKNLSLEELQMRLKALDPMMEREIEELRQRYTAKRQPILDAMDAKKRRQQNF
UniProt P37173, sequence (whole entry, looked up): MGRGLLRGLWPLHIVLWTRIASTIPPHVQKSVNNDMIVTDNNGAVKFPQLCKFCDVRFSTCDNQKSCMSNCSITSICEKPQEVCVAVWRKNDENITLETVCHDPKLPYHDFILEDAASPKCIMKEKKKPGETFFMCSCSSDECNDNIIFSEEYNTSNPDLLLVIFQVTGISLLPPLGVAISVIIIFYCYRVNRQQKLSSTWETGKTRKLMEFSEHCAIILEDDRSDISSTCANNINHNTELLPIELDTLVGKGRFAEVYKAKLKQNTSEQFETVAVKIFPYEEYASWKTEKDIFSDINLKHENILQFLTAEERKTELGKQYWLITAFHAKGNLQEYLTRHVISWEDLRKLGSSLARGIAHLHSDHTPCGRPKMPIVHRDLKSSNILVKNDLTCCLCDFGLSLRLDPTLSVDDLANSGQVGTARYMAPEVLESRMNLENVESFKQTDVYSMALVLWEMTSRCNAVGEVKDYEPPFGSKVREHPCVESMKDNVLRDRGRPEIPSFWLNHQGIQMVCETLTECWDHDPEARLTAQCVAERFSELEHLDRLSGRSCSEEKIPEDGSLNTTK

Set 1
SMILES: COc1ccc(-c2c(Nc3ccccn3)[nH]c3c(C4=CCCCC4)c(-c4ccccc4)nn3c2=O)cc1
Host: human
Sample: plasma
Route: oral
Quantity: MRT(0-inf) observed
method = LC-MS/MS non-compartmental; dose = 200 mg twice daily; time = cycle 1; result = 212 h
dose = 400 mg once daily; result = 26.1 h and 32.6 h and 14.8 h and 33 h
method = LC-MS/MS non-compartmental; dose = 50 mg once daily; time = cycle 1; result = 63.7 h

Set 2
Host: human
Sample: microsomes or S9
Concentration: 2 µM
Time: 0.5 h
Quantity: remaining compound
SMILES = Cc1cc(C)c(-c2csc(Nc3ncnc4[nH]ncc34)n2)cc1C; result = > 100%
SMILES = O=C(NC1CCN(Cc2ccc(OC3CCNCC3)c(Br)c2)CC1)c1cc2cc(Br)ccc2s1; result = > 99%
SMILES = O=C(CCc1nnc[nH]1)Nc1cc(C2CCCCCC2)[nH]n1; result = 90.5%
SMILES = Cc1ccc(S(=O)(=O)NC(=NCc2ccccc2)c2ccc(F)cc2)cc1; result = 19.1%
SMILES = c1ccc(Cn2nnc(C3(c4ccccc4)CCOCC3)n2)cc1; result = 41.6%

Set 3
Structure (SMILES): CC(C)n1cnc(-c2ccc(F)cc2)c1-c1ncc(C(=O)Nc2ccc(N3CCN(C)CC3)cc2)[nH]1
Method: phase 2a trial
Host: idiopathic pulmonary fibrosis patients
Quantity: patients with constipation
dose = 60 mg once daily; setting = adverse event grade 2; result = 0%
dose = dose not given; setting = adverse event grade 5, all dose arms pooled; result = 0%
dose = dose not given; setting = adverse event grade 3, all dose arms pooled; result = 0%
dose = 30 mg once daily; setting = adverse event grade 2; result = 0%

Set 4
SMILES: CS(=O)(=O)N1CCCC(NC(=O)[C@H](CCC2CCCCC2)NC(=O)c2ccc(CNc3ncnc4c3nnn4-c3ccccc3)cc2)C1 (stereo partly shown)
Method: competition with immobilised ligand
Concentration: 0.1 µM
Quantity: remaining binding
target = TEC (Homo sapiens, UniProt P42680); read-out = binding; result = 100%
target = Tyrosine-protein kinase ABL1, non-phosphorylated (ABL1, Homo sapiens, UniProt P00519, F317I); read-out = binding; result = 88%
target = MAP2K4 (Homo sapiens, UniProt P45985); read-out = cell-free assay; result = 100%
target = FLT3 (Homo sapiens, UniProt P36888, ITD); read-out = cell-free assay; result = 80%
target = ALK (Homo sapiens, UniProt Q9UM73); read-out = cell-free assay; result = 100%
target = STK3 (Homo sapiens, UniProt Q13188); read-out = cell-free assay; result = 95%
target = KIT (Homo sapiens, UniProt P10721); read-out = cell-free assay; result = 89%
target = PIP5K1C (Homo sapiens, UniProt O60331); read-out = cell-free assay; result = 85%
target = PIK3CA (Homo sapiens, UniProt P42336, H1047L); read-out = cell-free assay; result = 76%
target = ACVR1B (Homo sapiens, UniProt P36896); read-out = cell-free assay; result = 94%
target = MAPK14 (Homo sapiens, UniProt Q16539); read-out = cell-free assay; result = 100%
target = TGFBR2 (Homo sapiens, UniProt P37173); read-out = cell-free assay; result = 93%
target = NLK (Homo sapiens, UniProt Q9UBE8); read-out = cell-free assay; result = 100%
target = HCK (Homo sapiens, UniProt P08631); read-out = cell-free assay; result = 100%
target = TAOK3 (Homo sapiens, UniProt Q9H2K8); read-out = cell-free assay; result = 100%

Set 5
Method: PRP chromatography
Setting: linear fit, 1 mL
Quantity: logD 1,9-decadiene/water
Compound = CC(C)C[C@@H]1NC(=O)[C@H](CC(C)C)NC(=O)[C@H](CC(C)C)NC(=O)[C@H](C(C)C)NC(=O)[C@@H](Cc2cscn2)NC(=O)[C@@H](CC(C)C)NC(=O)[C@H](C)NC1=O; result = -2.73 log units
Compound = CC(C)C[C@@H]1NC(=O)[C@H](C)NC(=O)[C@H](Cc2cscn2)NC(=O)[C@@H](CC(C)C)NC(=O)[C@@H](CCC(=O)N2CCCC2)NC(=O)[C@H](CC(C)C)NC(=O)[C@@H](CC(C)C)NC1=O; result = -1.01 log units
Compound = CC(C)C[C@@H]1NC(=O)[C@@H](C)NC(=O)[C@@H](CC(C)C)NC(=O)[C@@H](C(C)C)NC(=O)[C@H](C(C)C)NC(=O)[C@H](CC(C)C)NC(=O)[C@@H](CC(C)C)NC1=O; result = 0.0568 log units
Compound = CC(C)C[C@@H]1NC(=O)[C@H](C)NC(=O)[C@@H](CC(C)C)NC(=O)[C@H](C)NC(=O)[C@H](CC(C)C)NC(=O)[C@H](CC(C)C)NC(=O)[C@@H](CC(C)C)NC1=O; result = -0.18 log units

A few entries again (set 4):
target = TGFBR2 (Homo sapiens, UniProt P37173); read-out = cell-free assay; result = 93%
target = HCK (Homo sapiens, UniProt P08631); read-out = cell-free assay; result = 100%
target = ACVR1B (Homo sapiens, UniProt P36896); read-out = cell-free assay; result = 94%
